Measurements collected from several papers.
Parts stem from different laboratories: compare values within a part only. Positions count from the first letter of the parent shown.

Block 1
Target: RING finger protein unkempt homolog, zinc fingers 1-6, GST-SBP tag (UNK, Homo sapiens, UniProt Q9C0B0, residues 30-357)
Method: RNA Bind-n-Seq
Form: RNA
Sample: in vitro
Concentration: not given
Notes: RNA with constant flanks, human and mouse sites, ends assumed
Relative to: input RNA pool
Direction: higher = stronger binding
Construct (chain): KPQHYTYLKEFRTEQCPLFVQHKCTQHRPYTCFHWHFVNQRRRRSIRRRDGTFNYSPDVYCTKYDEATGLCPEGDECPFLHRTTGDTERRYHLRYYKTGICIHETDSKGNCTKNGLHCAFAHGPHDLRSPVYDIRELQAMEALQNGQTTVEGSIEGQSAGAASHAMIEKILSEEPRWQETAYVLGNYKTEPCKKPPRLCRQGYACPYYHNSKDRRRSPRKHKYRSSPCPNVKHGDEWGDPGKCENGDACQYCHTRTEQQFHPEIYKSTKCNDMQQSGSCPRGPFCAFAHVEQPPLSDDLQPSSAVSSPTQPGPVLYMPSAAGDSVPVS
Strand | bound/input enrichment
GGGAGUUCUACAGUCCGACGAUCAACUUCUCUGACUACAUCCGUGGAGGCAUCGUCAGUCAGGUCAAAGUACCGAAAAAGAUUAGUUUUAAAUCCUUGCCAGCAUCACUGGUAGAGCCUGACUUUGUGAUGACUGACUUUGCCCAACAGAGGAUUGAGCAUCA | 0.586 ratio
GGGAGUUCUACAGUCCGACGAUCAGGUUACUGAUGCAUCACAUCAGAGAUUGUUUACCAGAGUUGAAAACAAGAAUAAAUGUUCUAGCUGCUCAGUAUCAGUCUCUUCUAAAUAGCUACGGUGAACCCGUGGAUGAUAAAAGUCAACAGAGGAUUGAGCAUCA | 0.222 ratio
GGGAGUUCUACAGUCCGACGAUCAACCAAGGUGCUUCUCCUGGGGGGCUGCUGGACCCGGCCUGCCAGAAGACGGACCAUUUCCUGUCCUGCUACCCCUGGUUCCACGGCCCCAUCUCCAGAGUGAAAGCAGCUCAGCUGGUUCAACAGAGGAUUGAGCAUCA | 0.0745 ratio
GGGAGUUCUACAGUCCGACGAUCCUAAUCGCCUCACAAAAAUUCACAGACAAACGCAUUGGCUAUUUAGGAGCAAUGCUAUUAUUAGAUGAAAGACAAGAUGUGCAUCUUCUCAUGACCAACUGUAUCAAGAAUGAUCUUAAUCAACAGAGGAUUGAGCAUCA | 9.56 ratio
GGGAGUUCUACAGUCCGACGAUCCAAAGCAACCUUUCCCUUCCCCCGAGUGAUUUUGCGAAACCCCCUUUUCCCUUCAGCUUGCUUAGAUGUUCCAAAUUUAGAAAGCUUAAGGCGGCCUACAGAAAAAGGAAAAAAGGCCACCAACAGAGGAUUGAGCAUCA | 1.5 ratio
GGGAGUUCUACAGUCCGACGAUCGGGAAGAAUGGAAAGCAGGGCUUCCCAGACAGAGAAAGCCCAGUUUCUGACCUGACUUCCACUGGUCUUUACCAAGACAAACAGGAAGAGAAAAGCACGGGCUUCAUACCCAUAAAGGAACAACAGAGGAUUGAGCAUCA | 0.174 ratio
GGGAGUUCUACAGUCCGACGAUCCAUUUUACCCUUCGAUUCGAUGAGCUGAAGAUGAGGAACCCCGCUAUUCAGAAUGACUUCAGUUACUAUCGAAGAACAAUAAGUCGUAACCGUAUCAACAACAUGCAUCUAGACAUUGAGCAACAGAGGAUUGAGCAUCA | 0.426 ratio
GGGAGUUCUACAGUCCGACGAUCCCCCACCCUUUUGCUUCUUUCCACCCGGGCCUGAACCCCUUGGAGAGGGAGAGACUGGCCCUGGCGGGCCCCCAGCUGCGGCCCGAGAUGAGCUACCCUGACAGACUGGCAGCCGAGCGUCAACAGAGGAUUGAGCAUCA | 0.123 ratio

Block 2
Target: Histone acetyltransferase KAT6A, both winged helices, GST fusion (KAT6A, Homo sapiens, UniProt Q92794, residues 1-181)
Method: protein binding microarray
Form: double-stranded DNA, one strand shown
Sample: in vitro
Concentration: not given
Notes: 8-mer, flanks averaged, mean of 2 arrays, mostly near background
Relative to: not given
Direction: higher = stronger binding
Residues (chain): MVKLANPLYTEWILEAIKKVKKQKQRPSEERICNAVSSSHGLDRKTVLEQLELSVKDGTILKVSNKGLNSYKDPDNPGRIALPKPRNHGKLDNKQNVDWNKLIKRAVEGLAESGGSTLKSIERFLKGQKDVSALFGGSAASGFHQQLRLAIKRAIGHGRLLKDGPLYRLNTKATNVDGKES
Strand | E-score
CACAGATC | -0.0657
AGGGACCA | -0.108
ACTCGCTG | 0.0284
CAAGAGGC | -0.115
CCGCGTCG | 0.347
AGCTATAT | -0.174
ACCGAAAC | 0.112
TCGTTAAA | -0.0311
AATCCCCG | 0.0877
CTGGGTAC | -0.0856
GCTCCGAA | 0.102
ATTGCCTA | -0.136
CGATCAAC | 0.053
GCATTAAC | 0.0278
CAACTCGG | -0.128
GACGATGC | -0.0153
CCTAACGC | 0.16
ACTATAGG | -0.0526
CACGCAAA | 0.0702
GGACATCA | 0.0264
ACTCGGTC | 0.007
AACCAATA | -0.0724
GTACTCCA | -0.115
ATGTGGAA | 0.00816
CAATCGAC | -0.0192

Block 3
Target: ABI1, truncated, D143A, DHFR fusion (Arabidopsis thaliana)
Method: DHFR PCA, deep sequencing
Sample: yeast
Notes: methotrexate growth selection, single substitutions
Together with: (+)-ABA 4.8 µM
Relative to: wild-type fitted maximum
Direction: higher = stronger binding
Parent: PYL1, truncated, DHFR fusion (Arabidopsis thaliana); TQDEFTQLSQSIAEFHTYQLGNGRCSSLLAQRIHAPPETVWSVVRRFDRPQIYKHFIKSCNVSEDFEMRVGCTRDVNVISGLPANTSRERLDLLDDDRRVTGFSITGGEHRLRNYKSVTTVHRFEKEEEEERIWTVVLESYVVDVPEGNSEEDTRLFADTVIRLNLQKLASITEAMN; partner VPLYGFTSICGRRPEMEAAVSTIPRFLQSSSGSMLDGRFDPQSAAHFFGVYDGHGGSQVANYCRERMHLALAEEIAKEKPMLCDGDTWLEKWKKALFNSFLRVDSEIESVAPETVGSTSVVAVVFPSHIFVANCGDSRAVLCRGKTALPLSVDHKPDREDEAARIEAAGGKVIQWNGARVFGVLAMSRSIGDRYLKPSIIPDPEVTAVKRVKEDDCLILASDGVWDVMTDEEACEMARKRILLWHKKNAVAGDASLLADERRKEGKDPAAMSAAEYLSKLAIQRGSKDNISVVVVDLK
Change | relative binding score [%]
R99D | -3.01
V62Y | 17.1
G21I | 64.5
V142Q | 77.1
E125C | 85.4
V70M | 27
E147C | 54.6
D65V | 31.4
L112N | -9.8
A35G | 11.6
R24T | 65.5
D3W | 64
A175L | 60.9

Block 4
Target: CCNB3, cyclin fold, Cln2 fusion (human)
Method: yeast growth competition, sequencing
Sample: yeast
Notes: strong parent motif
Relative to: not given
Direction: higher = stronger binding
Parent: SCAPER docking peptide (human); SNARRSLNFGGST; partner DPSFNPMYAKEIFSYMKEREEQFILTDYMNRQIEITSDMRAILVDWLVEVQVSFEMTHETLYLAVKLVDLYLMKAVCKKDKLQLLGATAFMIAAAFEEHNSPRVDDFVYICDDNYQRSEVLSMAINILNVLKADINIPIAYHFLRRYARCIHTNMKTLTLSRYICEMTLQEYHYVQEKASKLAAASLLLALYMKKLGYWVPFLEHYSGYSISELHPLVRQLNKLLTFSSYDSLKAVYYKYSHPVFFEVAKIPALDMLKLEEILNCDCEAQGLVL
Change | normalised enrichment score
SKARRSLNFGGST [N2K] | 1.18
SNARRSLAFGGST [N8A] | 0.47
LNARRSLNFGGST [S1L] | 1.68
SNLRRSLNFGGST [A3L] | 0.461
SNARRSLNFGGSA [T13A] | 1.33
SNARRSLNFHGST [G10H] | 0.923
SNAHRSLNFGGST [R4H] | 0.354
SNTRRSLNFGGST [A3T] | 0.665
SNARRELNFGGST [S6E] | -0.0454
SNARRSLNTGGST [F9T] | 0.158
SNARRSLNAGGST [F9A] | -0.00782
SNARSSLNFGGST [R5S] | 0.43
SNARRSLNFGGQT [S12Q] | 1.33
SNCRRSLNFGGST [A3C] | 1.74

For quick reference, copied from above (block 1):
Strand | bound/input enrichment
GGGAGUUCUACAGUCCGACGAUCCAAAGCAACCUUUCCCUUCCCCCGAGUGAUUUUGCGAAACCCCCUUUUCCCUUCAGCUUGCUUAGAUGUUCCAAAUUUAGAAAGCUUAAGGCGGCCUACAGAAAAAGGAAAAAAGGCCACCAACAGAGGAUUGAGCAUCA | 1.5 ratio
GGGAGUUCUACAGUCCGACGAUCGGGAAGAAUGGAAAGCAGGGCUUCCCAGACAGAGAAAGCCCAGUUUCUGACCUGACUUCCACUGGUCUUUACCAAGACAAACAGGAAGAGAAAAGCACGGGCUUCAUACCCAUAAAGGAACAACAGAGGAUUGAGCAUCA | 0.174 ratio
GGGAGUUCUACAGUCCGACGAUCCAUUUUACCCUUCGAUUCGAUGAGCUGAAGAUGAGGAACCCCGCUAUUCAGAAUGACUUCAGUUACUAUCGAAGAACAAUAAGUCGUAACCGUAUCAACAACAUGCAUCUAGACAUUGAGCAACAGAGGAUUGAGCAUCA | 0.426 ratio
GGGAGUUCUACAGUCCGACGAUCAACCAAGGUGCUUCUCCUGGGGGGCUGCUGGACCCGGCCUGCCAGAAGACGGACCAUUUCCUGUCCUGCUACCCCUGGUUCCACGGCCCCAUCUCCAGAGUGAAAGCAGCUCAGCUGGUUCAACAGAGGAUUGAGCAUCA | 0.0745 ratio
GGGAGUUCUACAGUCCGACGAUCCUAAUCGCCUCACAAAAAUUCACAGACAAACGCAUUGGCUAUUUAGGAGCAAUGCUAUUAUUAGAUGAAAGACAAGAUGUGCAUCUUCUCAUGACCAACUGUAUCAAGAAUGAUCUUAAUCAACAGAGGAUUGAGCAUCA | 9.56 ratio
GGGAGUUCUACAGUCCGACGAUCAGGUUACUGAUGCAUCACAUCAGAGAUUGUUUACCAGAGUUGAAAACAAGAAUAAAUGUUCUAGCUGCUCAGUAUCAGUCUCUUCUAAAUAGCUACGGUGAACCCGUGGAUGAUAAAAGUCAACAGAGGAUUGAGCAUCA | 0.222 ratio
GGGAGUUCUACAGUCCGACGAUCAACUUCUCUGACUACAUCCGUGGAGGCAUCGUCAGUCAGGUCAAAGUACCGAAAAAGAUUAGUUUUAAAUCCUUGCCAGCAUCACUGGUAGAGCCUGACUUUGUGAUGACUGACUUUGCCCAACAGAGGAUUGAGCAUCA | 0.586 ratio
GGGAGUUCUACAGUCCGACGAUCCCCCACCCUUUUGCUUCUUUCCACCCGGGCCUGAACCCCUUGGAGAGGGAGAGACUGGCCCUGGCGGGCCCCCAGCUGCGGCCCGAGAUGAGCUACCCUGACAGACUGGCAGCCGAGCGUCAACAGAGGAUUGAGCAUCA | 0.123 ratio
